{"data": "Published values from different studies", "note": "Parts stem from different laboratories: compare values within a part only."}
{"data": "Study 1", "target": "Replicase polyprotein 1ab, nsp13 helicase (rep, Severe acute respiratory syndrome coronavirus 2, UniProt P0DTD1)", "mode": "inhibitor", "organism": "SARS-CoV-2", "concentration": "20 µM"}
{"Structure (SMILES)": "CCC[C@H](NC(=O)[C@@H]1[C@H]2CCC[C@H]2CN1C(=O)[C@@H](NC(=O)[C@@H](NC(=O)c1cnccn1)C1CCCCC1)C(C)(C)C)C(=O)C(=O)NC1CC1", "inhibition": "99.8%"}
{"Structure (SMILES)": "COC(=O)C1=C(C)NC(C)=C(C(=O)OCC(C)C)C1c1ccccc1[N+](=O)[O-] (stereo not drawn)", "inhibition": "96.1%"}
{"Structure (SMILES)": "CC1OC2(CS1)CN1CCC2CC1 (stereo not drawn)", "inhibition": "0.2%"}
{"Structure (SMILES)": "COc1cc(C(=S)N2CCOCC2)ccc1O", "inhibition": "107%"}
{"Structure (SMILES)": "CC(C)Nc1cccnc1N1CCN(C(=O)c2cc3cc(NS(C)(=O)=O)ccc3[nH]2)CC1", "inhibition": "107%"}
{"Structure (SMILES)": "Cc1ccc(C(=O)Nc2ccc(S(=O)(=O)O)c3cc(S(=O)(=O)O)cc(S(=O)(=O)O)c23)cc1NC(=O)c1cccc(NC(=O)Nc2cccc(C(=O)Nc3cc(C(=O)Nc4ccc(S(=O)(=O)O)c5cc(S(=O)(=O)O)cc(S(=O)(=O)O)c45)ccc3C)c2)c1", "inhibition": "88.4%"}
{"Structure (SMILES)": "O=C(Nc1cccnc1)N1CCC(Cc2cccc(Oc3ccc(C(F)(F)F)cn3)c2)CC1", "inhibition": "3.41%"}
{"Structure (SMILES)": "O=C(O)C(Cl)Cl", "inhibition": "4.48%"}
{"Structure (SMILES)": "Oc1ccc2c(c1)CC[C@H](c1ccccc1)[C@@H]2c1ccc(OCCN2CCCC2)cc1", "inhibition": "1.3%"}
{"Structure (SMILES)": "CC(=O)C(=Cc1cc(O)c(O)c([N+](=O)[O-])c1)C(C)=O", "inhibition": "99.2%"}
{"Structure (SMILES)": "CN(C)C(=S)SSC(=S)N(C)C", "inhibition": "105%"}
{"Structure (SMILES)": "Oc1cc2c(cc1O)[C@@H]1c3ccc(O)c(O)c3OC[C@]1(O)C2", "inhibition": "107%"}
{"Structure (SMILES)": "COc1cc2c(cc1OC)-c1cc3ccc(OC)c(OC)c3c[n+]1CC2", "inhibition": "106%"}
{"Structure (SMILES)": "CC(C)N(CCC(=O)c1ccc2ccccc2c1)Cc1ccccc1", "inhibition": "105%"}
{"Structure (SMILES)": "CCN1C(=O)CNc2ncc(-c3ccc(-c4nc[nH]n4)nc3C)nc21", "inhibition": "93.3%"}
{"Structure (SMILES)": "O=C(O[C@@H]1Cc2c(O)cc(O)cc2O[C@@H]1c1cc(O)c(O)c(O)c1)c1cc(O)c(O)c(O)c1", "inhibition": "98%"}
{"Structure (SMILES)": "C[C@H](NC(=O)/C(C#N)=C/c1cccc(Br)n1)c1ccccc1", "inhibition": "104%"}
{"Structure (SMILES)": "CCOC(=O)Nc1ccc(NCc2ccc(F)cc2)nc1N", "inhibition": "108%"}
{"data": "Study 2", "target": "Replicase polyprotein 1ab, main protease (rep, Severe acute respiratory syndrome coronavirus 2, UniProt P0DTD1)", "effect on": "enzyme activity", "mode": "inhibitor"}
{"Structure (SMILES)": "Sc1nnc(-c2ccccc2Cl)o1", "IC50": "> 20 µM"}
{"Structure (SMILES)": "COc1ccc(C(=O)n2nc(-c3ccccc3)nc2N)cc1OC", "IC50": "8.75 µM"}
{"Structure (SMILES)": "O=C(c1ccc(Cl)cc1)c1cc([N+](=O)[O-])ccc1N1CCOCC1", "IC50": "> 20 µM"}
{"data": "Study 3", "cell line": "HEK-293T", "effect on": "pseudovirus infection", "technique": "FDA-approved drug library screen", "organism": "VSV pseudotyped with SARS-CoV-2 spike", "concentration": "10 µM", "time": "16 h", "relative to": "vehicle-treated"}
{"SMILES": "CCC(Cc1c(I)cc(I)c(N)c1I)C(=O)O (stereo not drawn)", "GFP-positive cells [%]": 88.3}
{"SMILES": "CC(C)c1nc(N(C)S(C)(=O)=O)nc(-c2ccc(F)cc2)c1/C=C/[C@@H](O)C[C@@H](O)CC(=O)O", "GFP-positive cells [%]": 83.3}
{"SMILES": "CC1(C)S[C@@H]2[C@H](NC(=O)COc3ccccc3)C(=O)N2[C@H]1C(=O)O", "GFP-positive cells [%]": 101}
{"SMILES": "CCCCc1oc2ccc(NS(C)(=O)=O)cc2c1C(=O)c1ccc(OCCCN(CCCC)CCCC)cc1", "GFP-positive cells [%]": 10.9}
{"data": "Study 4", "target": "Transcriptional repressor CTCF (CTCF, Homo sapiens, UniProt P49711, residues 1-727, full length assumed)", "technique": "protein-binding microarray", "form": "double-stranded DNA, one strand shown", "matrix": "in vitro", "concentration": "not given", "setting": "k-mer, scored over probes, only values ≥0.25", "direction": "higher = stronger binding", "Target sequence (chain)": "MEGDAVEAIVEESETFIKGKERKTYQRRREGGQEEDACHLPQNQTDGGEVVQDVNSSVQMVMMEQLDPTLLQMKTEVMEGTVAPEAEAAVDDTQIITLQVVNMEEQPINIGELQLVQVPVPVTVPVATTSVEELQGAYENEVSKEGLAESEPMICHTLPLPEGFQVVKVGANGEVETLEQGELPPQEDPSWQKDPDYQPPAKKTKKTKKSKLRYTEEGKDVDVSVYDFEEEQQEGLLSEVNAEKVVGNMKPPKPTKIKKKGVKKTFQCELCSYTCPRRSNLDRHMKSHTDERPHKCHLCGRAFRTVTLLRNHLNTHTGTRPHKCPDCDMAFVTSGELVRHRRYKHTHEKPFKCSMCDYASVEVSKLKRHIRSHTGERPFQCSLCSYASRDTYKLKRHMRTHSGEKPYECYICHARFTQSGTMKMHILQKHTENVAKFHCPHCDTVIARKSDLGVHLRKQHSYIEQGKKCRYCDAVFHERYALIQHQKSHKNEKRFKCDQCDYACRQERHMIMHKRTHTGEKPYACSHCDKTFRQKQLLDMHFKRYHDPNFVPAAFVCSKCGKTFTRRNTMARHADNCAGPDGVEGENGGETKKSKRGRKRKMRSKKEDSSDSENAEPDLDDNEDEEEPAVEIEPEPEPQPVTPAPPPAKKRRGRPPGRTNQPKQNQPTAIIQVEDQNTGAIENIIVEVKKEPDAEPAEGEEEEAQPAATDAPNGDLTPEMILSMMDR"}
{"Sequence": "GTATTTTA", "E-score": 0.263}
{"Sequence": "AAAATGAG", "E-score": 0.251}
{"Sequence": "GATTGTTA", "E-score": 0.255}
{"Sequence": "TACTTCTA", "E-score": 0.258}
{"Sequence": "CATAATAG", "E-score": 0.292}
{"Sequence": "CTAGCGGC", "E-score": 0.298}
{"Sequence": "AGTGCGCA", "E-score": 0.337}
{"Sequence": "ATCAATTA", "E-score": 0.277}
{"data": "Study 5", "target": "ATP-dependent RNA helicase DDX3X, helicase core (DDX3X, Homo sapiens, UniProt O00571, residues 132-607)", "technique": "RNA Bind-n-Seq", "form": "RNA", "matrix": "in vitro", "concentration": "not given", "setting": "4-mer, random 30-nt RNA, single round", "added": "RocA, ADP, phosphate", "relative to": "input library", "direction": "higher = stronger binding", "chain of UniProt O00571 (132-607, looked up)": "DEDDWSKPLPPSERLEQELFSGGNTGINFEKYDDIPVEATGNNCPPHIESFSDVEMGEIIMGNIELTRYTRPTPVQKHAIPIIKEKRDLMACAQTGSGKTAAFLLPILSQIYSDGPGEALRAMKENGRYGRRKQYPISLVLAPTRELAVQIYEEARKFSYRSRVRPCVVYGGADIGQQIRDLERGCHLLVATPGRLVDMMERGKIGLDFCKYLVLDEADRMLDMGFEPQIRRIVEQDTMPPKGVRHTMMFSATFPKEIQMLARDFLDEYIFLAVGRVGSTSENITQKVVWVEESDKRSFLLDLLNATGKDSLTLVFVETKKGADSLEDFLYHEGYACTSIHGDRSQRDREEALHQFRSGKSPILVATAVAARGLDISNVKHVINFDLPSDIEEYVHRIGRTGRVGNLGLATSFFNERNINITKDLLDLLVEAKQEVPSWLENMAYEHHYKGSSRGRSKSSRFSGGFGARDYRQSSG"}
{"Sequence": "UAUC", "4-mer enrichment": "0.737 fold"}
{"Sequence": "AUAU", "4-mer enrichment": "0.903 fold"}
{"Sequence": "CGGA", "4-mer enrichment": "1.25 fold"}
{"Sequence": "GAUC", "4-mer enrichment": "0.843 fold"}
{"Sequence": "GGUA", "4-mer enrichment": "1.05 fold"}
{"Sequence": "GACA", "4-mer enrichment": "0.818 fold"}
{"note": "Some of these lines once more (study 3):"}
{"SMILES": "CC1(C)S[C@@H]2[C@H](NC(=O)COc3ccccc3)C(=O)N2[C@H]1C(=O)O", "GFP-positive cells [%]": 101}
{"SMILES": "CCCCc1oc2ccc(NS(C)(=O)=O)cc2c1C(=O)c1ccc(OCCCN(CCCC)CCCC)cc1", "GFP-positive cells [%]": 10.9}
{"SMILES": "CC(C)c1nc(N(C)S(C)(=O)=O)nc(-c2ccc(F)cc2)c1/C=C/[C@@H](O)C[C@@H](O)CC(=O)O", "GFP-positive cells [%]": 83.3}
{"SMILES": "CCC(Cc1c(I)cc(I)c(N)c1I)C(=O)O (stereo not drawn)", "GFP-positive cells [%]": 88.3}
